{"data": "Measured values of several laboratories", "note": "Each numbered part is a random draw from the data of one study; scales do not carry over between parts.", "sequence of UniProt Q15303 (whole entry, looked up)": "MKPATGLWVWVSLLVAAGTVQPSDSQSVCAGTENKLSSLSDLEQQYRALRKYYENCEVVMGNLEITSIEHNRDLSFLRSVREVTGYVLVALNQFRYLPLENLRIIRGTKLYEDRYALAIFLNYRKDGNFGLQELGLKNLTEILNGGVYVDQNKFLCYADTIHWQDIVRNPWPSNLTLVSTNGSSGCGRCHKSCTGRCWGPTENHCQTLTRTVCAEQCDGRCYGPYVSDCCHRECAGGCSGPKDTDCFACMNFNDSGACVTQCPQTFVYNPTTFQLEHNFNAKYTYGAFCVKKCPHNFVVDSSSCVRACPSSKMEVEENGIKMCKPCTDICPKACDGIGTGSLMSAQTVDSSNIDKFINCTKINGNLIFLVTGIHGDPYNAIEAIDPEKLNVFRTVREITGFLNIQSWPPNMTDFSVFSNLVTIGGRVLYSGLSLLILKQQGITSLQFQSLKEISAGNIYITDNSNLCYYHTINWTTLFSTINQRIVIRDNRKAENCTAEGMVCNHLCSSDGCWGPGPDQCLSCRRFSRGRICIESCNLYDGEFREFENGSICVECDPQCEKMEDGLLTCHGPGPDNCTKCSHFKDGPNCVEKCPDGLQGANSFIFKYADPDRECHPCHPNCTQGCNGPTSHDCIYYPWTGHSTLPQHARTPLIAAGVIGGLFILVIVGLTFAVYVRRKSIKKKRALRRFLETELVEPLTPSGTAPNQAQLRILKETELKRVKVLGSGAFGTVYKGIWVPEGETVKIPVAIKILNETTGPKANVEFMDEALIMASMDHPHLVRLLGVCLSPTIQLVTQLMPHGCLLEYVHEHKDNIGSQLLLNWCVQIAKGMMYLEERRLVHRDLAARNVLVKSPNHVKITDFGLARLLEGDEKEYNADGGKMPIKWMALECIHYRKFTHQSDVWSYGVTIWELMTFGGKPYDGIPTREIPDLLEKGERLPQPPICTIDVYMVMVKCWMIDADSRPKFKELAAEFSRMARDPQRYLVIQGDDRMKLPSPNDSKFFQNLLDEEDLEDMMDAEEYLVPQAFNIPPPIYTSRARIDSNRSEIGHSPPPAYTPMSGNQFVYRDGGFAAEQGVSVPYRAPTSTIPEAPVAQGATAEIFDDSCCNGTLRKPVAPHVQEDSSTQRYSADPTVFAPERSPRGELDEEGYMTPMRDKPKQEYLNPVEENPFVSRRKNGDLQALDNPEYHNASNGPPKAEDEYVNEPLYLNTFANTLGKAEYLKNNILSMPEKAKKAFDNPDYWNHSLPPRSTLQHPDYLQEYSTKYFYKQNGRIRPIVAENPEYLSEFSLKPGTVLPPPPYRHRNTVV", "sequence of UniProt O14730 (whole entry, looked up)": "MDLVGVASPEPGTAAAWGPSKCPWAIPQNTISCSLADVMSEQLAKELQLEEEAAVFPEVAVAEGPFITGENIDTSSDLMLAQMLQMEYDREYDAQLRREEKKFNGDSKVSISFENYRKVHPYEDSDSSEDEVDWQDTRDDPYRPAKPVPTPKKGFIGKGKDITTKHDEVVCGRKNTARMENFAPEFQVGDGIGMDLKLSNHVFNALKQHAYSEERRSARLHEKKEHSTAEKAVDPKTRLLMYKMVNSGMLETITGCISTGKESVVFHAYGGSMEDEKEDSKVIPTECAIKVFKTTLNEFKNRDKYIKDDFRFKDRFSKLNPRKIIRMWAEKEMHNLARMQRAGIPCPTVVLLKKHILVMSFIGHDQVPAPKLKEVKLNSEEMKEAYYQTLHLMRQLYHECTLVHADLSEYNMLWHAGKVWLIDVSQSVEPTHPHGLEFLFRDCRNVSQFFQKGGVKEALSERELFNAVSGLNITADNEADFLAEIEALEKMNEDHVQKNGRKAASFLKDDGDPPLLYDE", "sequence of UniProt P29323 (whole entry, looked up)": "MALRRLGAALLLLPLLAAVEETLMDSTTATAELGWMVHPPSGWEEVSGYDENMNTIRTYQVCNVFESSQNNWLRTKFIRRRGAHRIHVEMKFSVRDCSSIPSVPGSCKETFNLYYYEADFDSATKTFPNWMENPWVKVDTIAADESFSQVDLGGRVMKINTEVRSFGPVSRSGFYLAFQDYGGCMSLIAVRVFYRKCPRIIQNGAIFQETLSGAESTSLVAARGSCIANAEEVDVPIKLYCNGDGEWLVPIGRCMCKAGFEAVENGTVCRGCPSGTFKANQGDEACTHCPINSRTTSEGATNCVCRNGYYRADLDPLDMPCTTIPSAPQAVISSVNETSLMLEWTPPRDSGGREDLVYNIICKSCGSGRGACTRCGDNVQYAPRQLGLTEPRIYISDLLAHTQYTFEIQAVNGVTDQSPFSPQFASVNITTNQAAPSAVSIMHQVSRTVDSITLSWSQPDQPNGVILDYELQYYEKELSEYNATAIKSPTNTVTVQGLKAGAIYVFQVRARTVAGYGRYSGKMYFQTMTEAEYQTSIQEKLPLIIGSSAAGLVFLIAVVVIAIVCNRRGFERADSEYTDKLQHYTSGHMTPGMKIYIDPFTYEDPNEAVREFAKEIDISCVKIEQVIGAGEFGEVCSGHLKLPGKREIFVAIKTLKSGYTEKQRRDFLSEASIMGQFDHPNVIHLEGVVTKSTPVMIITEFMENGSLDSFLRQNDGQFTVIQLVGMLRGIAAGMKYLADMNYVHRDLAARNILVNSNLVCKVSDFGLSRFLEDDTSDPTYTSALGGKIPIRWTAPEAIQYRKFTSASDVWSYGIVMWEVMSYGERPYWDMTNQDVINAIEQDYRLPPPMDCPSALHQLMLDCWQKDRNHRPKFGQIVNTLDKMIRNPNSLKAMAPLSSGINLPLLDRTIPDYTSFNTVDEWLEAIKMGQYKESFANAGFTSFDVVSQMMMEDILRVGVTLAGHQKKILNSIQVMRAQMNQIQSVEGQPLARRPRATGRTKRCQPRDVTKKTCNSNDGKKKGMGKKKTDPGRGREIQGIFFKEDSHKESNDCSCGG", "sequence of UniProt P36894 (whole entry, looked up)": "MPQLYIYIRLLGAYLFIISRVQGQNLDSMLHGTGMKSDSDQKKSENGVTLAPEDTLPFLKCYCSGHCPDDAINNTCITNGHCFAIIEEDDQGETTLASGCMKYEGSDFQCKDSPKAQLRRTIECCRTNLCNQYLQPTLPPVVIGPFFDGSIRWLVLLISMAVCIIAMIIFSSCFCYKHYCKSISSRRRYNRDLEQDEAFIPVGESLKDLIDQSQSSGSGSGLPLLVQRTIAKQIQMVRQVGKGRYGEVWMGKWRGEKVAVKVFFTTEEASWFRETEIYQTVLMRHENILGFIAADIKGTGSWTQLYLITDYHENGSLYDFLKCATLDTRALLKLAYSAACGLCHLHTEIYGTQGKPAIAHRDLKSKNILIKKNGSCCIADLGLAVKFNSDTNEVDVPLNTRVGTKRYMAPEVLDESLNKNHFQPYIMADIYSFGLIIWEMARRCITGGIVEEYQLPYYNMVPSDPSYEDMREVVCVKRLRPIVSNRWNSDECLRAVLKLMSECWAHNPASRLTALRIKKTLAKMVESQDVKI"}
{"data": "Sample 1", "species": "mouse", "matrix": "microsomes or S9", "tested at": "2 µM", "time": "0.5 h"}
{"Structure (SMILES)": "Cc1nc(C)c(C(=O)NCc2ccccc2)c(-c2ccc(Cl)cc2)c1C(=O)O", "remaining compound": "> 99%"}
{"Structure (SMILES)": "Cc1n[nH]c(CC(=O)N2C[C@@H](C)[C@](O)(C(C)C)C2)n1", "remaining compound": "88.2%"}
{"Structure (SMILES)": "CCC(Oc1ccccc1F)C(=O)Nc1c(C)cccc1C (centres unmarked)", "remaining compound": "0.877%"}
{"Structure (SMILES)": "CCOC1CC(Nc2cncc(-c3nncn3C)c2)C12CCCC2 (centres unmarked)", "remaining compound": "49.1%"}
{"Structure (SMILES)": "Cc1nc2ccccc2n1Cc1cc(NCc2ccccc2OC(C)C)nc(N)n1", "remaining compound": "1.85%"}
{"Structure (SMILES)": "O=C(O)c1nn(-c2ccccc2)nc1-c1nn(-c2ccccc2)nc1C(=O)O", "remaining compound": "86.6%"}
{"Structure (SMILES)": "COc1cc(=O)[nH]cc1C(=O)N1CCCC1c1ccc(O)cc1 (centres unmarked)", "remaining compound": "33.1%"}
{"Structure (SMILES)": "COc1c(NC(=O)c2ccc[nH]2)cc(Cl)cc1C(=O)N(C)C", "remaining compound": "3.82%"}
{"Structure (SMILES)": "CN(C)S(=O)(=O)c1ccc(Br)c2ccccc12", "remaining compound": "25%"}
{"data": "Sample 2", "target": "Ribosomal protein S6 kinase beta-2 (RPS6KB2, Homo sapiens, UniProt Q9UBS0)", "read-out": "enzyme activity", "mode": "inhibitor", "tested at": "0.5 µM", "relative to": "control", "sequence of UniProt Q9UBS0 (whole entry, looked up)": "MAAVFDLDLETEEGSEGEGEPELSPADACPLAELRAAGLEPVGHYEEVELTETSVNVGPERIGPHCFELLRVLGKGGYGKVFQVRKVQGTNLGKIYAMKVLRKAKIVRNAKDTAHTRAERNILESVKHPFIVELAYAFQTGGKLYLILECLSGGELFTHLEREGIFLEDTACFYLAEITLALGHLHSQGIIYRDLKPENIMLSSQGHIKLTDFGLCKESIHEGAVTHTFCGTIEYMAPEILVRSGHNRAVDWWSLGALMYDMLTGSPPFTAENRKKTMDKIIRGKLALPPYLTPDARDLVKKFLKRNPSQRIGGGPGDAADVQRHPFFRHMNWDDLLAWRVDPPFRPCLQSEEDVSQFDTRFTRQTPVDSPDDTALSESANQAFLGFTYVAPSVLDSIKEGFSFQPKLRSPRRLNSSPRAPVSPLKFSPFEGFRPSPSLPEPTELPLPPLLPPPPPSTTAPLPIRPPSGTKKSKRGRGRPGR"}
{"Compound": "CC(C)(C)n1nc(Cc2cccc3ccccc23)c2c(N)ncnc21", "remaining activity [%]": 92.7}
{"Compound": "Nc1ncnc2c1cnn2-c1ccccc1", "remaining activity [%]": 87.5}
{"Compound": "Oc1ccc(Nc2nc(-c3ccc(Cl)cc3)cs2)cc1", "remaining activity [%]": 99.8}
{"Compound": "Nc1nc(Nc2ccc(S(N)(=O)=O)cc2)nn1C(=O)c1c(F)cccc1F", "remaining activity [%]": 104}
{"Compound": "N#CC(=C(N)Sc1ccc(N)cc1)c1ccccc1C(F)(F)F", "remaining activity [%]": 105}
{"Compound": "COc1cc(Nc2c(C#N)cnc3cc(OCCCN4CCN(C)CC4)c(OC)cc23)c(Cl)cc1Cl", "remaining activity [%]": 107}
{"Compound": "COc1ccc(S(=O)(=O)N(CCO)c2ccccc2CN(C)CC=Cc2ccc(Cl)cc2)cc1", "remaining activity [%]": 97.1}
{"Compound": "Cc1cc(Nc2nc(-c3ccccc3)nc3ccccc23)n[nH]1", "remaining activity [%]": 99.7}
{"Compound": "NC(=O)c1ccc(N(C(N)=O)c2c(F)cccc2F)nc1-c1ccc(F)cc1F", "remaining activity [%]": 100}
{"Compound": "CC#CC(=O)Nc1cc2c(Nc3ccc(F)c(Cl)c3)ncnc2cn1", "remaining activity [%]": 97.2}
{"data": "Sample 3", "Structure (SMILES)": "O=C1CCc2cc(Nc3cc(OC4CCOCC4)c([N+](=O)[O-])cc3Cl)ccc2N1", "read-out": "cell-free assay", "technique": "competition with immobilised ligand", "tested at": "1 µM"}
{"target": "Tyrosine-protein kinase ABL1, phosphorylated (ABL1, Homo sapiens, UniProt P00519, Y253F)", "remaining binding [%]": 79}
{"target": "TNNI3K (Homo sapiens, UniProt Q59H18)", "remaining binding [%]": 60}
{"target": "FLT3 (Homo sapiens, UniProt P36888, D835Y)", "remaining binding [%]": 100}
{"target": "ABL2 (Homo sapiens, UniProt P42684)", "remaining binding [%]": 79}
{"target": "STK32A (Homo sapiens, UniProt Q8WU08)", "remaining binding [%]": 90}
{"target": "ERBB4 (Homo sapiens, UniProt Q15303)", "remaining binding [%]": 100}
{"target": "KIT (Homo sapiens, UniProt P10721, D816H)", "remaining binding [%]": 100}
{"target": "RIOK3 (Homo sapiens, UniProt O14730)", "remaining binding [%]": 100}
{"target": "LYN (Homo sapiens, UniProt P07948)", "remaining binding [%]": 93}
{"target": "EPHB2 (Homo sapiens, UniProt P29323)", "remaining binding [%]": 96}
{"target": "BMPR1A (Homo sapiens, UniProt P36894)", "remaining binding [%]": 97}
{"target": "PKN2 (Homo sapiens, UniProt Q16513)", "remaining binding [%]": 100}
{"target": "STK39 (Homo sapiens, UniProt Q9UEW8)", "remaining binding [%]": 100}
{"target": "CAMK2B (Homo sapiens, UniProt Q13554)", "remaining binding [%]": 90}
{"target": "FLT3 (Homo sapiens, UniProt P36888, D835V)", "remaining binding [%]": 70}
{"target": "GAK (Homo sapiens, UniProt O14976)", "remaining binding [%]": 100}
{"target": "EGFR (Homo sapiens, UniProt P00533, del747-752/P753S)", "remaining binding [%]": 65}
{"target": "Aurora kinase A (AURKA, Homo sapiens, UniProt O14965)", "remaining binding [%]": 87}
{"data": "Sample 4", "Structure (SMILES)": "C=CCc1ccc(O)c(-c2cc(CC=C)ccc2O)c1", "read-out": "chloride current", "technique": "whole-cell voltage clamp", "ANO1 del476-501/M544V": "Anoctamin-1 (ANO1, Homo sapiens, UniProt Q5XXA6, del476-501/M544V)", "ANO1 del476-501/L548A": "Anoctamin-1 (ANO1, Homo sapiens, UniProt Q5XXA6, del476-501/L548A)", "sequence of UniProt Q5XXA6 (whole entry, unmodified, looked up)": "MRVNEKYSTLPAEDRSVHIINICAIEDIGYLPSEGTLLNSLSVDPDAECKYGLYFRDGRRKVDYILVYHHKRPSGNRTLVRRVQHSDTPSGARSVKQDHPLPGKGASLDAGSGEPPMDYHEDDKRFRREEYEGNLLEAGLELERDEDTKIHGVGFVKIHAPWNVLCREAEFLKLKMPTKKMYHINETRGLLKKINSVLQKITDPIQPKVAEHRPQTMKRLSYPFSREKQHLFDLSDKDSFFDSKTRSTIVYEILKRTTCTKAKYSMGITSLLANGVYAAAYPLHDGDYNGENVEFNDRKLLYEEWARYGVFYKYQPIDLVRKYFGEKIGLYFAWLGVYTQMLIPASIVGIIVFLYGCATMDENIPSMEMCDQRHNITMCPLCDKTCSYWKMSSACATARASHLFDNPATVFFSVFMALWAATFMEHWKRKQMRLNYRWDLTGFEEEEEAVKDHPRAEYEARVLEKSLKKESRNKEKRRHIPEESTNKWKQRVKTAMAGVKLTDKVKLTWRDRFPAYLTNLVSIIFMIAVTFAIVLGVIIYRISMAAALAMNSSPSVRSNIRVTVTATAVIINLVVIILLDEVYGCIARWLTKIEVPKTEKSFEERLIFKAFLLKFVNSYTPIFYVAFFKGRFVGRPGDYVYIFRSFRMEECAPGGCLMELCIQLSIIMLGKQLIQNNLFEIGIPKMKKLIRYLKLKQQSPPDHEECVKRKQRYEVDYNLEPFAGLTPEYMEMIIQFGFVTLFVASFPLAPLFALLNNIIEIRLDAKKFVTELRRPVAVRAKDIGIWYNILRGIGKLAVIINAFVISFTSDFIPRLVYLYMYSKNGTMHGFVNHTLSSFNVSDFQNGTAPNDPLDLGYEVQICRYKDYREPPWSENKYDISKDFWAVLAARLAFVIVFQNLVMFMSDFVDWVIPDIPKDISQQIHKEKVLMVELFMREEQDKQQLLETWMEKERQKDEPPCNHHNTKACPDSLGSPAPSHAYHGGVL"}
{"target": "ANO1 del476-501/M544V", "assay": "inhibitor", "conditions": "40 mV holding voltage", "IC50": "87.8 µM"}
{"target": "Anoctamin-1 (ANO1, Homo sapiens, UniProt Q5XXA6, D383A/del476-501)", "conditions": "membrane voltage -100 mV", "IC50": "47.3 µM"}
{"target": "Anoctamin-1 (ANO1, Homo sapiens, UniProt Q5XXA6, del476-501/R541D)", "assay": "inhibitor", "conditions": "R515D mutant at 80 mV", "IC50": "200 µM"}
{"target": "Anoctamin-1 (ANO1, Homo sapiens, UniProt Q5XXA6, del476-501/R561A)", "conditions": "membrane voltage 100 mV", "IC50": "29.5 µM"}
{"target": "ANO1 del476-501/M544V", "assay": "inhibitor", "conditions": "100 mV holding voltage", "IC50": "171 µM"}
{"target": "ANO1 del476-501/L548A", "conditions": "membrane voltage 20 mV", "IC50": "31.1 µM"}
{"target": "Anoctamin-1 (ANO1, Homo sapiens, UniProt Q5XXA6, del476-501/F803A)", "conditions": "membrane voltage -40 mV", "IC50": "37.8 µM"}
{"target": "Anoctamin-1 (ANO1, Homo sapiens, UniProt Q5XXA6, del476-501/E649I)", "assay": "inhibitor", "conditions": "E623I mutant at -40 mV", "IC50": "142 µM"}
{"target": "Anoctamin-1 (ANO1, Homo sapiens, UniProt Q5XXA6, del476-501/M544A)", "conditions": "membrane voltage -80 mV", "IC50": "111 µM"}
{"target": "ANO1 del476-501/L548A", "conditions": "membrane voltage -60 mV", "IC50": "40.6 µM"}
{"note": "For quick reference, copied from above (sample 4):"}
{"target": "Anoctamin-1 (ANO1, Homo sapiens, UniProt Q5XXA6, del476-501/R541D)", "assay": "inhibitor", "conditions": "R515D mutant at 80 mV", "IC50": "200 µM"}
{"target": "Anoctamin-1 (ANO1, Homo sapiens, UniProt Q5XXA6, del476-501/R561A)", "conditions": "membrane voltage 100 mV", "IC50": "29.5 µM"}
{"target": "ANO1 del476-501/M544V", "assay": "inhibitor", "conditions": "100 mV holding voltage", "IC50": "171 µM"}
{"target": "ANO1 del476-501/L548A", "conditions": "membrane voltage 20 mV", "IC50": "31.1 µM"}
{"target": "Anoctamin-1 (ANO1, Homo sapiens, UniProt Q5XXA6, del476-501/F803A)", "conditions": "membrane voltage -40 mV", "IC50": "37.8 µM"}
{"target": "Anoctamin-1 (ANO1, Homo sapiens, UniProt Q5XXA6, del476-501/E649I)", "assay": "inhibitor", "conditions": "E623I mutant at -40 mV", "IC50": "142 µM"}
{"target": "Anoctamin-1 (ANO1, Homo sapiens, UniProt Q5XXA6, del476-501/M544A)", "conditions": "membrane voltage -80 mV", "IC50": "111 µM"}
